# Measured values gathered from unrelated publications.
# Every numbered part comes from another study and shows a few of its results, in no order. Numbers after ± are the reported error.
# Sequence of UniProt P49760 (whole entry, looked up): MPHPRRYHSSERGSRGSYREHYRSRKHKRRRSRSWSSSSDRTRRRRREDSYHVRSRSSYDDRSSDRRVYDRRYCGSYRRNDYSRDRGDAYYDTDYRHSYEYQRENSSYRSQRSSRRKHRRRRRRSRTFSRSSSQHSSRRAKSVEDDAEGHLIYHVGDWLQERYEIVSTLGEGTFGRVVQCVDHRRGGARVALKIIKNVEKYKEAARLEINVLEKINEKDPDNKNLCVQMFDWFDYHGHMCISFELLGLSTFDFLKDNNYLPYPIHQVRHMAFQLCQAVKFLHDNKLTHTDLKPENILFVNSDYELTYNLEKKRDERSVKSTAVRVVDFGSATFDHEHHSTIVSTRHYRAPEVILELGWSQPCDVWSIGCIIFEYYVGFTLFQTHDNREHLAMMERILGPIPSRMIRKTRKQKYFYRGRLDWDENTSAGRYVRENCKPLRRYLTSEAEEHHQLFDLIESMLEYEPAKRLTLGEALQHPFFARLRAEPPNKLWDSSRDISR
# Sequence of UniProt O15146 (whole entry, looked up): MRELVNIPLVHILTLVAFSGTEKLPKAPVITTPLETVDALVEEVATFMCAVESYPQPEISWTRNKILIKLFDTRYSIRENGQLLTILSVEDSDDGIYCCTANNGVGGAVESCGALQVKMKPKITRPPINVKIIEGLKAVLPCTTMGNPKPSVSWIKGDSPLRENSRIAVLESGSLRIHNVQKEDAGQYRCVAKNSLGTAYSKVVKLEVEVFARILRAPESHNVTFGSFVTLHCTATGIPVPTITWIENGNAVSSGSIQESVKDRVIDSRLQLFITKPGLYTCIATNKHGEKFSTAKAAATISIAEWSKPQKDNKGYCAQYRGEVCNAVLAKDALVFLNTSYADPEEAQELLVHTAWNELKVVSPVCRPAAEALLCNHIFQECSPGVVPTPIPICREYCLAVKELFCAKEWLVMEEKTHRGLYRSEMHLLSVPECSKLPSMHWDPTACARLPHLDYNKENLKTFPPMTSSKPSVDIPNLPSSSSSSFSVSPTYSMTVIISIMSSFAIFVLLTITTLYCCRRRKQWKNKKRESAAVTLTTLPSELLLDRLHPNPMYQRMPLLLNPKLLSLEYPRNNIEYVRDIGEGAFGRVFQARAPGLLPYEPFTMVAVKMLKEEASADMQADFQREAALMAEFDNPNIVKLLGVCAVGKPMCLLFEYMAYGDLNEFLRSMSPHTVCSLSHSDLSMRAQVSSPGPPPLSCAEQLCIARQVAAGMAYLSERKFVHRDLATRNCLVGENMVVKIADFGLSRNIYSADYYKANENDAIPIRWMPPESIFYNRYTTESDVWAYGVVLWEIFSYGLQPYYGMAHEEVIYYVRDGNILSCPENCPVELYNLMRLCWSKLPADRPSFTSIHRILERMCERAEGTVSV
# Sequence of UniProt Q13153 (whole entry, looked up): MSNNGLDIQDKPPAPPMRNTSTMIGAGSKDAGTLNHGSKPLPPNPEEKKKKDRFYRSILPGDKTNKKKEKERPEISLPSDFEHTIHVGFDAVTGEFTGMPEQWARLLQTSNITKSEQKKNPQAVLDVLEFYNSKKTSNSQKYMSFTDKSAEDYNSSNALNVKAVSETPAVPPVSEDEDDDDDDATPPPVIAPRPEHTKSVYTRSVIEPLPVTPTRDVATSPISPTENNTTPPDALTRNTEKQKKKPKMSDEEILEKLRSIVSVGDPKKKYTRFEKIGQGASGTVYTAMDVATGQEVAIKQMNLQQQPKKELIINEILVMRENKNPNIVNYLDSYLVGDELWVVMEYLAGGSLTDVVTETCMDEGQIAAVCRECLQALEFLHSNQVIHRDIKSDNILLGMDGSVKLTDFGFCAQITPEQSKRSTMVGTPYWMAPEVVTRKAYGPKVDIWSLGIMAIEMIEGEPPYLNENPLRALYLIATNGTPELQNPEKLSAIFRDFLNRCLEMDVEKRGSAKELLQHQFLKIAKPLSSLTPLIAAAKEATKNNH
# Sequence of UniProt P23458 (whole entry, looked up): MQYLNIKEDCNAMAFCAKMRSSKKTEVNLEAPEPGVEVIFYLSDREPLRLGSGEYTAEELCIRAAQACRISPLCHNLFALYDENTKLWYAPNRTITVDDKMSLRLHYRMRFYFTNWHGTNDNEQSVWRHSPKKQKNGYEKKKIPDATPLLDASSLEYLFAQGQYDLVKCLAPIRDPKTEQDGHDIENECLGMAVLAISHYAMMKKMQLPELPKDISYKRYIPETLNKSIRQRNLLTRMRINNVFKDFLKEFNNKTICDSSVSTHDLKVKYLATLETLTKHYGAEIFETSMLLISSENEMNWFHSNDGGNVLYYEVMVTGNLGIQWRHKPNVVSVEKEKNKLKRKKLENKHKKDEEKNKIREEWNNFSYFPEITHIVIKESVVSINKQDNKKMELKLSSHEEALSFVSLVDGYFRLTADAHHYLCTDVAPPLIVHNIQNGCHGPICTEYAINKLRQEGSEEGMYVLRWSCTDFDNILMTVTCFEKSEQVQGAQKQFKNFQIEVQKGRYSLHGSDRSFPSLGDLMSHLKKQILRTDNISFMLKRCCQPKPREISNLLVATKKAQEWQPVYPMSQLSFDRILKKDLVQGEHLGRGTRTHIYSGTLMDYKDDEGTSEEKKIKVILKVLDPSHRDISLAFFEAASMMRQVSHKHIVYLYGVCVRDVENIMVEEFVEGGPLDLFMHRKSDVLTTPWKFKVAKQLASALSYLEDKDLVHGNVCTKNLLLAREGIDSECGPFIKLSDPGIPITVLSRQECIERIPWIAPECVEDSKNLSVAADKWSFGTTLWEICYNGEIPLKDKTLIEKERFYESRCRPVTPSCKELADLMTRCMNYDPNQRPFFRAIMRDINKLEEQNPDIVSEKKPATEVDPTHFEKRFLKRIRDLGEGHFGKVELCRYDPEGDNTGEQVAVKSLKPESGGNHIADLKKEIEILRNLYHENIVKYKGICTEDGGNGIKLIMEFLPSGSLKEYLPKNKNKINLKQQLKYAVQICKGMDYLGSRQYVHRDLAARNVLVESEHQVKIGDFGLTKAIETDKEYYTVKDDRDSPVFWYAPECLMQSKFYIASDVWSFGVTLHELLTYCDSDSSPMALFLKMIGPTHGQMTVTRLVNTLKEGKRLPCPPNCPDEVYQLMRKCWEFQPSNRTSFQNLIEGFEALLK
# Sequence of UniProt P48730 (whole entry, looked up): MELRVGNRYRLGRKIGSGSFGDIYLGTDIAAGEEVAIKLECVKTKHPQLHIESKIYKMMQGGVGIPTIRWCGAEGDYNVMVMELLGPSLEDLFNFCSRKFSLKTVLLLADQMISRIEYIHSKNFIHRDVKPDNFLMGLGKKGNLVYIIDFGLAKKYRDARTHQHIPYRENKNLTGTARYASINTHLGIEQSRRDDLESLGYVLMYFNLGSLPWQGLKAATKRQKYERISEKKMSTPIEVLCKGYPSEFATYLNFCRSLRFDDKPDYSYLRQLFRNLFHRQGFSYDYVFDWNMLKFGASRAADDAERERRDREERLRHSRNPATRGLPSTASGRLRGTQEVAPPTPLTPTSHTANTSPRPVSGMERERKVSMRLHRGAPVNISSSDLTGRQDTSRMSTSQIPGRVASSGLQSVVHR
# Sequence of UniProt P08069 (whole entry, looked up): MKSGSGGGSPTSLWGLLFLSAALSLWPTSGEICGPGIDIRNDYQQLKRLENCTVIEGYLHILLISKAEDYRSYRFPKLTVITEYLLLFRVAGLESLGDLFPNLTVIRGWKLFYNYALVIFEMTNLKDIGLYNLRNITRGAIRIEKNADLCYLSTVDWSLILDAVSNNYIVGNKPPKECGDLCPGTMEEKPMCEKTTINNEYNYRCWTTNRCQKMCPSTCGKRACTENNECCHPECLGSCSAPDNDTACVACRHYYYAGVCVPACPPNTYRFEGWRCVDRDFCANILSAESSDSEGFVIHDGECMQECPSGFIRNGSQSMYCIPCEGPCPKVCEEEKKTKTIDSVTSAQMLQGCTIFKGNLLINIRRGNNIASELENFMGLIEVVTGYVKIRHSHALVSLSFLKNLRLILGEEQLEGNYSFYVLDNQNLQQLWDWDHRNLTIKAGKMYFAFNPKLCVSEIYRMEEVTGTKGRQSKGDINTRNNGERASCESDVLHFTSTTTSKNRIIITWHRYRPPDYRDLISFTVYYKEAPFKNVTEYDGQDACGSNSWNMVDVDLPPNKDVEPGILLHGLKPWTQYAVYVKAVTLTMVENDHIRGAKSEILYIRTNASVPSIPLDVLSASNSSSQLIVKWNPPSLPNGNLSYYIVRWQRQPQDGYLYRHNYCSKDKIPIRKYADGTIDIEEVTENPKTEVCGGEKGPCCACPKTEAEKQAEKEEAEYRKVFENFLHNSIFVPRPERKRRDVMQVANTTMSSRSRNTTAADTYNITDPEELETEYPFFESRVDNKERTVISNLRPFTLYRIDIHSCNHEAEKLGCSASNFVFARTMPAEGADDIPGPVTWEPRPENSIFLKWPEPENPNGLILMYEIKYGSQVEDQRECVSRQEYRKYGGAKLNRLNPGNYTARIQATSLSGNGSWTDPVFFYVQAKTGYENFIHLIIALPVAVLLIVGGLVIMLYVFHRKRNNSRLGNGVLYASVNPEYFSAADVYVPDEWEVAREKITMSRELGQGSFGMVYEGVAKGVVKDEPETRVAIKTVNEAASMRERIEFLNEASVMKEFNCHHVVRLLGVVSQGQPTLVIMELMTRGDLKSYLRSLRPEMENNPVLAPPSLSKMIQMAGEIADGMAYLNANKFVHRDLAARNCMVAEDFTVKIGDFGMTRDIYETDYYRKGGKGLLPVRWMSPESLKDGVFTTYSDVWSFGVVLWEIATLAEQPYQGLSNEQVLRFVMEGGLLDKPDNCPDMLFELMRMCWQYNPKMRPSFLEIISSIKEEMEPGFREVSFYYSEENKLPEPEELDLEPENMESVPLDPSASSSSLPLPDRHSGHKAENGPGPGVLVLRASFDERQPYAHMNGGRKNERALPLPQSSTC

# Study 1 — method: phase 2a clinical trial
# Structure (SMILES): CC(C)n1cnc(-c2ccc(F)cc2)c1-c1ncc(C(=O)Nc2ccc(N3CCN(C)CC3)cc2)[nH]1
# Species: patients with idiopathic pulmonary fibrosis
test,setting,patients with treatment-emergent adverse events [%]
item: carbon dioxide decreased,"30 mg once daily, Grade 2",0
item: metabolism and nutrition disorders (SOC),"dose not given, Grade 4, all drug arms total",0
item: interstitial lung disease,"30 mg once daily, Grade 3",0
item: idiopathic pulmonary fibrosis,"60 mg once daily, Grade 4",0
item: left bundle branch block,"30 mg once daily, Grade 2",0
item: lumbar vertebral fracture,"60 mg once daily, Grade 4, maximum intensity",0
item: drug-induced liver injury,"30 mg once daily, Grade 2",0
item: left ventricular dysfunction,"dose not given, Grade 4, all drug arms",0
item: drug-induced liver injury,"dose not given, Grade 5, all drug arms total",0

# Study 2 — effect on: cell-free assay; method: competition with immobilised ligand; concentration: 1 µM
# SMILES: CCS(=O)(=O)c1cc2cc(C[C@@](O)(CC(C)(C)c3ccc(F)cc3C(N)=O)C(F)(F)F)[nH]c2cn1
target,remaining binding [%]
"Myosin-IIIb (MYO3B, Homo sapiens, UniProt Q8WXR4)",79
"Dual specificity protein kinase CLK2 (CLK2, Homo sapiens, UniProt P49760)",100
"Serine/threonine-protein kinase Nek2 (NEK2, Homo sapiens, UniProt P51955)",94
"Muscle, skeletal receptor tyrosine-protein kinase (MUSK, Homo sapiens, UniProt O15146)",60
"Aurora kinase B (AURKB, Homo sapiens, UniProt Q96GD4)",71
"Tyrosine-protein kinase ABL1, non-phosphorylated (ABL1, Homo sapiens, UniProt P00519)",99
"Cyclin-dependent kinase 5 (CDK5, Homo sapiens, UniProt Q00535)",100
"Serine/threonine-protein kinase Nek3 (NEK3, Homo sapiens, UniProt P51956)",100
"Rho-associated protein kinase 1 (ROCK1, Homo sapiens, UniProt Q13464)",69
"Serine/threonine-protein kinase/endoribonuclease IRE1 (ERN1, Homo sapiens, UniProt O75460)",75
"Serine/threonine-protein kinase MAK (MAK, Homo sapiens, UniProt P20794)",100
"Activin receptor type-1B (ACVR1B, Homo sapiens, UniProt P36896)",100
"Receptor-interacting serine/threonine-protein kinase 4 (RIPK4, Homo sapiens, UniProt P57078)",100

# Study 3 — SMILES: COc1ccc(COc2ccc(Cc3cnc(N)nc3N)cc2OC)cc1; effect on: enzyme activity; mode: inhibitor; concentration: 0.5 µM; relative to: control
target,remaining activity [%]
"Serine/threonine-protein kinase PAK 6 (PAK6, Homo sapiens, UniProt Q9NQU5)",94.9
"Calcium/calmodulin-dependent protein kinase kinase 1 (CAMKK1, Homo sapiens, UniProt Q8N5S9)",115
"Tyrosine-protein kinase receptor TYRO3 (TYRO3, Homo sapiens, UniProt Q06418)",110
"Serine/threonine-protein kinase Sgk2 (SGK2, Homo sapiens, UniProt Q9HBY8)",97.5
"Ribosomal protein S6 kinase alpha-3 (RPS6KA3, Homo sapiens, UniProt P51812)",105
"Dual specificity protein kinase CLK1 (CLK1, Homo sapiens, UniProt P49759)",103
"Muscle, skeletal receptor tyrosine-protein kinase (MUSK, Homo sapiens, UniProt O15146)",102
"Tyrosine-protein kinase JAK1 (JAK1, Homo sapiens, UniProt P23458)",105
"Dual specificity protein kinase CLK2 (CLK2, Homo sapiens, UniProt P49760)",94.3
"Calcium/calmodulin-dependent protein kinase type 1 (CAMK1, Homo sapiens, UniProt Q14012)",103
"Casein kinase I isoform epsilon (CSNK1E, Homo sapiens, UniProt P49674)",97.1
"Protein kinase C zeta type (PRKCZ, Homo sapiens, UniProt Q05513)",93.4
"Casein kinase I isoform delta (CSNK1D, Homo sapiens, UniProt P48730)",98.5
"Insulin-like growth factor 1 receptor (IGF1R, Homo sapiens, UniProt P08069)",123
"Serine/threonine-protein kinase PAK 1 (PAK1, Homo sapiens, UniProt Q13153)",93.4
"Vascular endothelial growth factor receptor 1 (FLT1, Homo sapiens, UniProt P17948)",99.7
"Protein kinase C theta type (PRKCQ, Homo sapiens, UniProt Q04759)",98
"Mitogen-activated protein kinase kinase kinase 20 (MAP3K20, Homo sapiens, UniProt Q9NYL2)",97.4
"Serine/threonine-protein kinase SIK2 (SIK2, Homo sapiens, UniProt Q9H0K1)",98.6
"Tyrosine-protein kinase Tec (TEC, Homo sapiens, UniProt P42680)",114

# Other studies, line by line
Structure (SMILES),system,setting,measurement,value
OCCN1CCN(CCCN2c3ccccc3Sc3ccc(Cl)cc32)CC1,"mouse, serum",dose not given,serum cholesterol,99.5 ± 11.2 mg/dL

# Excerpt of the above (study 1):
test,setting,patients with treatment-emergent adverse events [%]
item: lumbar vertebral fracture,"60 mg once daily, Grade 4, maximum intensity",0
item: drug-induced liver injury,"30 mg once daily, Grade 2",0
item: metabolism and nutrition disorders (SOC),"dose not given, Grade 4, all drug arms total",0
item: carbon dioxide decreased,"30 mg once daily, Grade 2",0
item: idiopathic pulmonary fibrosis,"60 mg once daily, Grade 4",0
item: left bundle branch block,"30 mg once daily, Grade 2",0
